Assay results from different studies.
Every numbered part comes from another study and shows a few of its results, in no order. Several values in a cell are separate wells, animals, samples, runs or records.

Study 1
SMILES: Cn1cc(-c2cccc(CN3CCC4(CC3)COc3c4ccc4c3CN([C@H]3CCC(=O)NC3=O)C4=O)c2)cn1
Target: CRBN/Zinc finger protein Helios (Homo sapiens, UniProt Q96SW2+Q9UKS7)
UniProt Q9UKS7, sequence (whole entry, looked up): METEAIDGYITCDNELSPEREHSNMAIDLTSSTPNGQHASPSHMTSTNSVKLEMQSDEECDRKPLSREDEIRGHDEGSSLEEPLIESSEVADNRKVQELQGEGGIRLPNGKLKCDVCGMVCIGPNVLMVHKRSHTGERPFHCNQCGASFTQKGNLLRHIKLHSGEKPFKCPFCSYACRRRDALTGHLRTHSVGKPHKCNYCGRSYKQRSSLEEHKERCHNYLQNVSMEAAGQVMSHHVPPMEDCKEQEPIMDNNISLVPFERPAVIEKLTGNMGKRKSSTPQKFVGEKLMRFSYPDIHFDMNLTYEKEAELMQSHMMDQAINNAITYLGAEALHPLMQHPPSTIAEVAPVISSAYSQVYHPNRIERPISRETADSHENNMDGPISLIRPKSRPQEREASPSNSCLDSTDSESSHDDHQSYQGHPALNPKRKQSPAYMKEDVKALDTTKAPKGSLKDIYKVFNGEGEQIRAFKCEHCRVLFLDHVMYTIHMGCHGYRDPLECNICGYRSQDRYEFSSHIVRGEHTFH
UniProt Q96SW2, sequence (whole entry, looked up): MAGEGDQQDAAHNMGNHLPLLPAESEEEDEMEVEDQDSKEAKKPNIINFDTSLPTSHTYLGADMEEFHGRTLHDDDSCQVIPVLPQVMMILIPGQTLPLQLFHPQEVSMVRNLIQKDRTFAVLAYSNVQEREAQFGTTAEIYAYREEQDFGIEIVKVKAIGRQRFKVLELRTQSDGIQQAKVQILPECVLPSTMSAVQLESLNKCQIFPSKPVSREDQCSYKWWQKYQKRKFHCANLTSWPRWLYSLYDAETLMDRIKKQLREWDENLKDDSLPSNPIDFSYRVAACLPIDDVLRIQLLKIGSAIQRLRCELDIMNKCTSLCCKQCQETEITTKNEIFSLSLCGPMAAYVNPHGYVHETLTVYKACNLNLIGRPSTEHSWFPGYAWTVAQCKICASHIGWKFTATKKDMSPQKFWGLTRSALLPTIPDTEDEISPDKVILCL
Mode: degrader
Method: HiBiT
Cell line: HEK293
tested at | time | protein remaining
1.372 nM | 1 h | 69.9% and 67.9%
1000 nM | 3 h | 14.7% and 18.1%
0.05081 nM | 3 h | 86.2% and 88.6%
1.372 nM | 0.5 h | 84.4% and 91.5%
12.35 nM | 0.5 h | 78.6% and 80.8%
0.1524 nM | 1 h | 86.9% and 93.5%
333.3 nM | 1 h | 41.4% and 45.7%
12.35 nM | 3 h | 23.3% and 23.7%

Study 2
Structure (SMILES): CN1CCC[C@H]1COc1nc2c(c(N3CCN(C(=O)C(F)(F)F)[C@@H](CC#N)C3)n1)CCN(c1cccc3cccc(Cl)c13)C2
Read-out: binding
Mode: competitor
Method: NanoBRET
Cell line: HEK293
KRAS G12D: GTPase KRas (KRAS, Homo sapiens, UniProt P01116, G12D)
target | tested at | normalized BRET
GTPase KRas (KRAS, Homo sapiens, UniProt P01116, Q61H) | 1.24 µM | 86.6% and 76.2% and 71% and 70.3%
KRAS G12D | 11.1 µM | 101% and 96.5% and 138%
KRAS G12D | 412 nM | 94.1% and 92.1% and 96.2%
KRAS G12D | 33.3 µM | 106% and 96.4% and 138%
GTPase KRas (KRAS, Homo sapiens, UniProt P01116, Q61L) | 11.1 µM | 48.5% and 50.6% and 48.2%
KRAS G12D | 45.7 nM | 108% and 92% and 95.7%
KRAS G12D | 15.2 nM | 102% and 100% and 98.2%
GTPase KRas (KRAS, Homo sapiens, UniProt P01116, G13D) | 1.24 µM | 88.2% and 69.5% and 72.8% and 91.9%

Further values, each from its own experiment
Structure (SMILES) | organism | test | system | setting | scale | endpoint | value
FC(F)(F)c1ccc(C2=NOC3(NC(c4ccccc4)=NO3)N2c2ccccc2)cc1 (stereo not drawn) | Plasmodium falciparum | LC-MS | infected erythrocytes, 3D7 | 10 µM, 5 h | reference: DMSO | N-carbamoyl-L-aspartate level | 12 fold
C=CCN1C(=O)C(O)(C(=O)O)Oc2cc(F)ccc21 (stereo not drawn) | Arabidopsis thaliana | hypocotyl length | Col-0, seedlings | 6.25 µg/mL |  | inhibition | 2.06%
